{"data": "Assay results from different studies", "note": "Compare with care: the assays were run in different laboratories. “And” joins repeats or separate records; there may be more than shown."}
{"Substance": "RSV F/foldon soluble ectodomain S190F/V207L/D486H/E487Q/F488W/D489H (respiratory syncytial virus)", "target or system": "itself", "assay": "SEC", "measurement": "subunits per oligomer", "value": 3}
{"Substance": "HA H6N1 mature, HA1/HA2 (influenza A virus A/Taiwan/2/2013)", "target or system": "itself", "assay": "crystal structure", "measurement": "subunits per oligomer", "value": 3}
{"Substance": "HA soluble ectodomain, foldon (influenza B virus)", "target or system": "itself", "assay": "SEC", "measurement": "subunits per oligomer", "value": 3}
{"Substance": "MPER/Fluc-Ec2 (HIV-1/Escherichia coli)", "target or system": "itself", "assay": "crystal structure", "measurement": "subunits per oligomer", "value": 2}
{"Substance": "NP (influenza A virus)", "target or system": "itself", "assay": "SEC", "measurement": "subunits per oligomer", "value": 3}
{"Substance": "PDCoV spike ectodomain trimer ectodomain (porcine deltacoronavirus)", "target or system": "itself", "assay": "cryo-EM", "measurement": "subunits per oligomer", "value": 3}
{"Substance": "HA (influenza A virus)", "target or system": "itself", "assay": "SEC", "measurement": "subunits per oligomer", "value": "> 9 HA monomers"}
{"Substance": "HA/fibritin foldon extracellular domain, trimeric (Influenza A virus)", "target or system": "itself", "assay": "SEC", "measurement": "subunits per oligomer", "value": 3}
{"Substance": "Argonaute (Clostridium perfringens)", "target or system": "itself", "assay": "SEC", "measurement": "subunits per oligomer", "value": 2}
{"Substance": "RASANLAATK", "assay": "AIM", "test system": "peptide, CD8+ T cells from PBMC, human donors", "setting": "HLA-A*03:01 restricted, unit not given", "how to read": "relative to: positive over tested donors", "measurement": "frequency of responding donors", "value": 25}
{"Substance": "L/P L1-P4 complex (Borna disease virus 1)", "target or system": "itself", "assay": "SEC", "measurement": "subunits per oligomer", "value": 2}
{"Substance": "LPQGFSALEPLVDLP", "target or system": "human CD4 T cells", "assay": "AIM", "test system": "peptide", "measurement": "responding donors", "value": "18%"}
{"Substance": "F ectodomain (Hendra virus)", "target or system": "itself", "assay": "cryo-EM", "measurement": "subunits per oligomer", "value": "9 and 3"}
{"Substance": "HA H10N8, HA1/HA2 (influenza A virus A/Jiangxi-Donghu/346/2013)", "target or system": "itself", "assay": "crystal structure", "measurement": "subunits per oligomer", "value": 3}
{"Substance": "HA soluble ectodomain, foldon (influenza A virus H1N1)", "target or system": "itself", "assay": "SEC", "measurement": "subunits per oligomer", "value": 3}
{"Substance": "NP (UniProt P03466)", "target or system": "itself", "assay": "negative-stain electron microscopy", "measurement": "subunits per oligomer", "value": "3 protomers per ring and 5 protomers per ring"}
{"Substance": "S ectodomain, GCN4 trimerization motif R717S (Murine hepatitis virus)", "target or system": "itself", "assay": "SEC-MALS", "measurement": "subunits per oligomer", "value": 3}
{"Substance": "HA trimeric ectodomain (H7N1 influenza A virus)", "target or system": "itself", "assay": "cryo-EM", "measurement": "subunits per oligomer", "value": 3}
{"Substance": "HA ectodomain (influenza A H1N1 A/Michigan/45/2015)", "target or system": "itself", "assay": "cryo-EM", "measurement": "subunits per oligomer", "value": 3}
{"Substance": "gp41 with full IL linker (HIV-1)", "target or system": "itself", "assay": "AUC", "setting": "pH 4.0", "measurement": "subunits per oligomer", "value": 3}
{"Substance": "comFB (Vibrio cholerae)", "target or system": "itself", "assay": "mass photometry", "setting": "together with: c-di-GMP 0.5 mM", "measurement": "subunits per oligomer", "value": 2}
{"Substance": "NA head domain (Influenza A virus H3N2)", "target or system": "itself", "assay": "crystal structure", "measurement": "subunits per oligomer", "value": 4}
{"Substance": "HA HA2  ectodomain (Influenza A virus H3N2)", "target or system": "itself", "assay": "native gel", "measurement": "subunits per oligomer", "value": 3}
{"Substance": "integrase mature (HIV-1)", "target or system": "itself", "assay": "negative stain electron microscopy", "measurement": "subunits per oligomer", "value": 8}
{"note": "Some of these lines once more:"}
{"Substance": "HA ectodomain (influenza A H1N1 A/Michigan/45/2015)", "target or system": "itself", "assay": "cryo-EM", "measurement": "subunits per oligomer", "value": 3}
{"Substance": "gp41 with full IL linker (HIV-1)", "target or system": "itself", "assay": "AUC", "setting": "pH 4.0", "measurement": "subunits per oligomer", "value": 3}
{"Substance": "comFB (Vibrio cholerae)", "target or system": "itself", "assay": "mass photometry", "setting": "together with: c-di-GMP 0.5 mM", "measurement": "subunits per oligomer", "value": 2}
{"Substance": "NA head domain (Influenza A virus H3N2)", "target or system": "itself", "assay": "crystal structure", "measurement": "subunits per oligomer", "value": 4}
